Values quoted from earlier work, collected from citations in different studies.
Each numbered part shows a few of the values that one paper quotes. In brackets after ≈: the same amount, converted by molar mass.
Sequence of UniProt P25084 (whole entry, looked up): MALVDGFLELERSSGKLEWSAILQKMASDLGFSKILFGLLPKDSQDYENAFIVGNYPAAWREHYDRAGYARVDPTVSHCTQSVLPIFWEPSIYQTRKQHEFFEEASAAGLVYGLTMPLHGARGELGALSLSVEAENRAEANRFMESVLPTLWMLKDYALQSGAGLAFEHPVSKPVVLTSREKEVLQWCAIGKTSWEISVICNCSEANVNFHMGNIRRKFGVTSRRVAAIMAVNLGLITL
Sequence of UniProt Q9NSY1 (whole entry, looked up): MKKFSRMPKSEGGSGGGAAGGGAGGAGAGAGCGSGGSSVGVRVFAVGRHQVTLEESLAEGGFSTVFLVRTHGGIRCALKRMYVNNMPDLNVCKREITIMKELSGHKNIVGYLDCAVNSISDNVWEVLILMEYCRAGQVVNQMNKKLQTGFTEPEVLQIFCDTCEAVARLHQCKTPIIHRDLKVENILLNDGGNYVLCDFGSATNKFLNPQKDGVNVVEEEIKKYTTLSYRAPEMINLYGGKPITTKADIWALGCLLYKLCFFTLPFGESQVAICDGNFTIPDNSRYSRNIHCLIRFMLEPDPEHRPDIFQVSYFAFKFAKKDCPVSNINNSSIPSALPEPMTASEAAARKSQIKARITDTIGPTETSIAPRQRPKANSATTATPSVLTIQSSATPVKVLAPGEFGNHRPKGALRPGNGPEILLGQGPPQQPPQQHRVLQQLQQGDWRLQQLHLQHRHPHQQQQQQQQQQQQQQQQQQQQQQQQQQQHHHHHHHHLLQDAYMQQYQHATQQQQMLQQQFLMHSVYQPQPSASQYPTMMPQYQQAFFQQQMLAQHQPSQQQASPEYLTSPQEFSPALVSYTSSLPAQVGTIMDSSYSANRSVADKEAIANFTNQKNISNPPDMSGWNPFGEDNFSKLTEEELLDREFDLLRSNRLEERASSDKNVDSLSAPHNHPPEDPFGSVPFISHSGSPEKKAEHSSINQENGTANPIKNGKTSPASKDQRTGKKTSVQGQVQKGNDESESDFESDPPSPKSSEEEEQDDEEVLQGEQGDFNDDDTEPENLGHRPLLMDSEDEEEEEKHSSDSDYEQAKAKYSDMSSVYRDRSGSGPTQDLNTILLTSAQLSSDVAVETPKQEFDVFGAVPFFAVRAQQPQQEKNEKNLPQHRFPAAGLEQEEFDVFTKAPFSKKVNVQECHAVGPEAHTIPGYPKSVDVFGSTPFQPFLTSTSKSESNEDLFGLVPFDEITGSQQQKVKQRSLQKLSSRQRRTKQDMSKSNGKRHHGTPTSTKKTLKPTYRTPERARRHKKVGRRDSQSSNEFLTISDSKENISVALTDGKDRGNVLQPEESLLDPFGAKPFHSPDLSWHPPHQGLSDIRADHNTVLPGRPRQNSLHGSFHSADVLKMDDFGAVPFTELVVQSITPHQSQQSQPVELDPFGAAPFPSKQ

Study 1 — read-out: peptide-MHC binding; form: peptide; measurement: IC50
Target: HLA class I histocompatibility antigen, A alpha chain, allele A*80:01 (Homo sapiens, UniProt P04439)
LQKIPLQWF: > 20 µM
RVERIKSEY: 0.0339 µM
IRMWNQAAL: > 20 µM
YMLMGFQLK: > 20 µM
KVIEKMEVL: > 20 µM
LMRGVKWLK: > 15 µM
YALTEYHAM: > 20 µM
YQAENSTAE: > 20 µM
SMRSRARHI: > 20 µM
TTFPVNGGY: 2.19 µM
CSDETTLYY: 0.0258 µM
RRRPVTRPL: > 20 µM
RTFSILNRK: > 20 µM
AQSDFMSWV: > 20 µM
MHGHGKHIL: > 20 µM
KLGDITLFL: 0.016 µM
LLFRMILNY: 0.026 µM
HTAEIQQFF: 2.31 µM
MPDTLFEGV: > 20 µM
RTFGQPLFF: 0.414 µM
QCFSVVLRY: 0.011 µM
MTRGLLGSY: 0.174 µM
SHDLAPQFL: > 20 µM
MQIDGGEGV: > 20 µM
FLAFFSNGV: > 20 µM

Mixed results
NCc1cc(=O)[nH]o1  Kd (GABA-A receptor): 0.05 µM
CCOC(=O)N1c2ccc(C(F)(F)F)cc2[C@@H](N(Cc2cc(C(F)(F)F)cc(C(F)(F)F)c2)c2ncc(OCCCC(=O)O)cn2)C[C@H]1CC  time to steady state (human; daily dosing): 1 to 2 weeks
CC[C@H](C)CCCCC(=O)N[C@@H](CCN)C(=O)N[C@H](C(=O)N[C@@H](CCN)C(=O)N[C@H]1CCNC(=O)[C@H]([C@@H](C)O)NC(=O)[C@H](CCN)NC(=O)[C@H](CCN)NC(=O)[C@H](CC(C)C)NC(=O)[C@@H](Cc2ccccc2)NC(=O)[C@H](CCN)NC1=O)[C@@H](C)O  pharmacokinetic profile (human, mild renal insufficiency; single dose; relative to: healthy subjects): no effect
N.N.[Cl][Pt][Cl]  clearance (measured: total platinum; mouse; intravenous, 2.6 mg Pt/kg): 0.0892 L/h/kg
COc1ncccc1-c1cnn2ccc(N3CCN(C(=O)OC(C)C)CC3)nc12  Kd (BMP-2-inducible protein kinase (BMP2K, Homo sapiens, UniProt Q9NSY1)): 0.014 µM
CC(C)(N)CNC(=O)C[C@H]1CC[C@]2(CC1)OO[C@]1(O2)C2CC3CC(C2)CC1C3  logD (pH 7.4): 2.6
CN1C(=O)CN=C(c2ccccc2)c2cc(Cl)ccc21  blood-to-plasma ratio (rat): 1.3
N=C(N)c1ccc(CNC(=O)[C@@H]2CCN2C(=O)[C@H](NCC(=O)O)C2CCCCC2)cc1  IC50, Ki or Kd (plasmin; enzyme activity, inhibitor): 1.4 µM
CC(C)=CCc1cc2c(cc1O)O[C@H](c1ccc(O)cc1)CC2=O  IC50 (neuraminidase; inhibitor): 44.8 µM
NC(=O)O[C@@H](Cn1ncnn1)c1ccccc1Cl  protective index (male rat; i.p., MES seizure test): 13.4
CC(C)N(CCc1c[nH]c2cccc(O)c12)C(C)C  duration of hallucinogenic effect (human; concentration not given, anecdotal reports): 2 to 3 h
CCn1c2ccccc2c2cc(-n3nncc3-c3ccccc3)ccc21  GI50 (MDA-MB-231; 120 h): 0.13 µM
CCN(CC)N=O  mutation frequency (fingerprint mutation, measured: T>G substitution; rat, liver; concentration not given): increased
CC(C)C[C@H](NC(=O)[C@H](Cc1ccccc1)NC(=O)c1cnccn1)B(O)O  inhibition (CMA1; enzyme activity, inhibitor; 10 µM): 95%
NC1CCCCC1N.O=C([O-])C(=O)[O-].[Pt+2] (centres unmarked)  terminal half-life (measured: total platinum; mouse, plasma; intravenous, 8.34 mg Pt/kg): 49.2 min
CCOC(=O)Nc1ccc(NCc2ccc(F)cc2)cc1N  protective index (male rat; i.p., MES seizure test): 2
CC(=O)SCC[N+](C)(C)C  substrate activation factor b (butyrylcholinesterase; concentration not given): 3.6
c1cc([C@H]2CC[C@]3(CC2)OO[C@]2(O3)C3CC4CC(C3)CC2C4)ccc1OCCN1CCOCC1  thermodynamic solubility (FaSSIF; pH 6.5): 0.0406 mg/mL (≈ 86.5 µM)
Oc1ccc2c3c1O[C@H]1[C@@H](O)CC[C@@]4(O)[C@@H](C2)N(CC2CCC2)CC[C@]314  logD: 0.81
Nc1nc2c(c(=O)[nH]1)C[C@@H](CCc1ccc(C(=O)N[C@@H](CCC(=O)O)C(=O)O)cc1)CN2  Ki (SHMT2): 12.2 µM
CC(C)C[C@H](NC(=O)CNC(=O)c1cc(Cl)ccc1Cl)B(O)O  fraction absorbed (population PK estimate): 0.58
N[C@@]1(c2ccccc2Cl)CCCCC1=O  Cmax (mouse; dose not given, added: 1-ABT and ticlopidine; relative to: without CYP inhibitors): increased
COc1cc(/C=C/c2ccc(OC)cc2OC)cc(OC)c1  IC50 (CYP1A2 human; enzyme activity, inhibitor): 3.1 µM
C=CC(=O)OC  second-order rate constant (reaction with 3-mercaptopropionic acid; pH 8.1, 30 °C): 0.11 M⁻¹ s⁻¹
CCCCCC(=O)CC(=O)N[C@H]1CCOC1=O  EC50 (Transcriptional activator protein LasR (lasR, Pseudomonas aeruginosa, UniProt P25084); reporter gene, cell-based): 4.5 µM
